Experimental data of several laboratories.
Lines come from different studies, so protocols differ. Numbers after ± are the reported error.

Structure (SMILES) | test | test system | setting | how to read | endpoint | value
CCCCCCCC/C=C\CCCCCCCC(=O)OC[C@H](NC(=O)[C@H](Cc1c[nH]c2ccccc12)NC(=O)[C@H](Cc1c[nH]cn1)NC(=O)[C@@H]1CCC(=O)N1)C(=O)N[C@@H](Cc1ccc(O)cc1)C(=O)N[C@H](CC(C)C)C(=O)N[C@@H](CC(C)C)C(=O)N[C@@H](CCCNC(=N)N)C(=O)N1CCC[C@H]1C(=O)NCC |  | human plasma | 1 mg/mL, 37 °C |  | time to 50% degradation | ≤ 1.5 days
CCCC[C@H](NC(=O)COCCOCCNC(=O)CN1CCN(CC(=O)O)CCN(CC(=O)O)CC1)C(=O)N[C@H]1CC(=O)NCCCC[C@@H](C(N)=O)NC(=O)[C@H](Cc2c[nH]c3ccccc23)NC(=O)[C@H](CCCNC(=N)N)NC(=O)[C@@H](Cc2ccccc2)NC(=O)[C@H](Cc2c[nH]cn2)NC1=O [copper-64 labelled] |  | C57 mice, skin | intravenous, 0.37 MBq, 2 h |  | tissue uptake | 0.4 ± 0.07 %ID/g
N=C(N)NCCC[C@@H]1NC(=O)[C@H](CCCCNC(=O)CC[C@H](NC(=O)CC[C@H](NC(=O)CN2CCN(CC(=O)O)CCN(CC(=O)O)CCN(CC(=O)O)CC2)C(=O)N[C@@H](CCC(=O)NCCCC[C@@H]2NC(=O)[C@@H](Cc3ccccc3)NC(=O)[C@H](CC(=O)O)NC(=O)CNC(=O)[C@H](CCCNC(=N)N)NC2=O)C(=O)NCCCC[C@@H]2NC(=O)[C@@H](Cc3ccccc3)NC(=O)[C@H](CC(=O)O)NC(=O)CNC(=O)[C@H](CCCNC(=N)N)NC2=O)C(=O)NCCCC[C@@H]2NC(=O)[C@@H](Cc3ccccc3)NC(=O)[C@H](CC(=O)O)NC(=O)CNC(=O)[C@H](CCCNC(=N)N)NC2=O)NC(=O)[C@@H](Cc2ccccc2)NC(=O)[C@H](CC(=O)O)NC(=O)CNC1=O [indium-111 labelled] |  | female athymic nu/nu mice, bone | intravenous, 24 h |  | tissue uptake | 0.53 ± 0.27 %ID/g
Cc1cc(-c2ccc(NC(=O)[C@H](CCCCNC(=O)CCN3C(=O)CC(SCCC(=O)N[C@H](Cc4ccccc4)C(=O)N[C@H]4CSSC[C@@H](C(=O)N[C@H](C(=O)O)[C@@H](C)O)NC(=O)[C@H]([C@@H](C)O)NC(=O)[C@H](CCCCN)NC(=O)[C@@H](Cc5c[nH]c6ccccc56)NC(=O)[C@H](Cc5ccc(O)cc5)NC4=O)C3=O)NC(=O)CN3CCN(CC(=O)O)CCN(CC(=O)O)CCN(CC(=O)O)CC3)c(C)c2)ccc1N=Nc1ccc2c(S(=O)(=O)O)cc(S(=O)(=O)O)c(N)c2c1O (some centres unmarked) [gallium-68 labelled] | micro-PET | male BALB/c nude mouse, AR42J xenograft, tumour and muscle | intravenous, 7.4 MBq, 4 h | relative to: tumour over muscle | tumour-to-tissue uptake ratio | 5.39 ± 0.97
CCCC[C@H](NC(=O)CCCCCCCNC(=O)CN1CCN(CC(=O)O)CCN(CC(=O)O)CC1)C(=O)N[C@H]1CC(=O)NCCCC[C@@H](C(N)=O)NC(=O)[C@H](Cc2c[nH]c3ccccc23)NC(=O)[C@H](CCCNC(=N)N)NC(=O)[C@@H](Cc2ccccc2)NC(=O)[C@H](Cc2c[nH]cn2)NC1=O [copper-64 labelled] |  | C57 mice, muscle | intravenous, 0.37 MBq, 2 h |  | tissue uptake | 0.11 ± 0.06 %ID/g
Cc1cc(-c2ccc(NC(=O)[C@H](CCCCNC(=O)CCOCCOCCC(=O)N[C@H](Cc3ccccc3)C(=O)N[C@H]3CSSC[C@@H](C(=O)N[C@H](C(=O)O)[C@@H](C)O)NC(=O)[C@H]([C@@H](C)O)NC(=O)[C@H](CCCCN)NC(=O)[C@@H](Cc4c[nH]c5ccccc45)NC(=O)[C@H](Cc4ccc(O)cc4)NC3=O)NC(=O)CN3CCN(CC(=O)O)CCN(CC(=O)O)CCN(CC(=O)O)CC3)c(C)c2)ccc1N=Nc1ccc2c(S(=O)(=O)O)cc(S(=O)(=O)O)c(N)c2c1O [lutetium-177 labelled] |  | metastatic NET patients, liver metastases |  |  | absorbed dose | 3.33 ± 0.78 Gy/GBq
COc1ccc2cc([C@H](C)C(=O)N[C@H](Cc3ccccc3)C(=O)N[C@H](Cc3ccccc3)C(=O)N[C@H](Cc3ccc(O)cc3)C(=O)O)ccc2c1 | oscillatory rheology | hydrogel 0.8 wt% |  |  | critical strain | 1.6%
N=C(N)NCCC[C@@H]1NC(=O)[C@H](CCCCNC(=O)CNC(=O)CNC(=O)CNC(=O)CC[C@H](NC(=O)CNC(=O)CNC(=O)CNC(=O)CN2CCN(CC(=O)O)CCN(CC(=O)O)CCN(CC(=O)O)CC2)C(=O)NCC(=O)NCC(=O)NCC(=O)NCCCC[C@@H]2NC(=O)[C@@H](Cc3ccccc3)NC(=O)[C@H](CC(=O)O)NC(=O)CNC(=O)[C@H](CCCNC(=N)N)NC2=O)NC(=O)[C@@H](Cc2ccccc2)NC(=O)[C@H](CC(=O)O)NC(=O)CNC1=O [indium-111 labelled] |  | female athymic nu/nu mice, muscle | intravenous, 111 kBq, 1 h |  | tissue uptake | 0.7 ± 0.03 %ID/g
CC(C)C[C@H](NC(=O)[C@H](Cc1ccc(O)cc1)NC(=O)[C@@H](CCCNC(=N)N)NC(=O)[C@@H](CO)NC(=O)[C@H](Cc1ccccc1)NC(=O)[C@H](CC1CCCCC1)NC(=O)[C@H](CC(=O)O)NC(=O)CN1CCN(CC(=O)O)CCN(CC(=O)O)CCN(CC(=O)O)CC1)C(=O)N[C@@H](Cc1c[nH]c2ccccc12)C(=O)N[C@@H](CO)C(=O)O [copper-64 labelled] |  | human cancer patients, urine | iv, dose not given, 0-1 h |  | activity excreted in urine | > 40 MBq
N=C(N)NCCC[C@H](NC(=O)[C@@H]1CSSC[C@H](NC(=O)[C@H](Cc2ccc3ccccc3c2)NC(=O)[C@H](CCCNC(=N)N)NC(=O)[C@H](CCCNC(=N)N)NC(=O)CN2CCN(CC(=O)O)CCN(CC(=O)O)CC2)C(=O)N[C@@H](Cc2ccc(O)cc2)C(=O)N[C@@H](CCCNC(N)=O)C(=O)N[C@@H](CCCCN)C(=O)N[C@H](CCCCN)C(=O)N2CCC[C@H]2C(=O)N[C@@H](Cc2ccc(O)cc2)C(=O)N[C@@H](CCCNC(=N)N)C(=O)N[C@@H](CCCNC(N)=O)C(=O)N1)C(N)=O [gallium-68 labelled] |  | normal brain |  |  | SUVmax range | 0.1 to 0.13
N=C(N)NCCC[C@@H]1NC(=O)[C@H](CCCCNC(=O)CNC(=O)CNC(=O)CNC(=O)CC[C@H](NC(=O)CNC(=O)CNC(=O)CNC(=O)CC[C@H](NC(=O)CN2CCN(CC(=O)O)CCN(CC(=O)O)CCN(CC(=O)O)CC2)C(=O)NCC(=O)NCC(=O)NCC(=O)N[C@@H](CCC(=O)NCC(=O)NCC(=O)NCC(=O)NCCCC[C@@H]2NC(=O)[C@@H](Cc3ccccc3)NC(=O)[C@H](CC(=O)O)NC(=O)CNC(=O)[C@H](CCCNC(=N)N)NC2=O)C(=O)NCC(=O)NCC(=O)NCC(=O)NCCCC[C@@H]2NC(=O)[C@@H](Cc3ccccc3)NC(=O)[C@H](CC(=O)O)NC(=O)CNC(=O)[C@H](CCCNC(=N)N)NC2=O)C(=O)NCC(=O)NCC(=O)NCC(=O)NCCCC[C@@H]2NC(=O)[C@@H](Cc3ccccc3)NC(=O)[C@H](CC(=O)O)NC(=O)CNC(=O)[C@H](CCCNC(=N)N)NC2=O)NC(=O)[C@@H](Cc2ccccc2)NC(=O)[C@H](CC(=O)O)NC(=O)CNC1=O [indium-111 labelled] |  | female athymic nu/nu mice, eyes | intravenous, 24 h |  | tissue uptake | 0.83 ± 0.2 %ID/g
CC(C)C[C@H](NC(=O)[C@H](Cc1ccc(O)cc1)NC(=O)[C@@H](CCCNC(=N)N)NC(=O)[C@@H](CO)NC(=O)[C@H](Cc1ccccc1)NC(=O)[C@H](CC1CCCCC1)NC(=O)[C@H](CC(=O)O)NC(=O)CN1CCCN2CCN(CCCN(CC(=O)O)CC2)CC1)C(=O)N[C@@H](Cc1c[nH]c2ccccc12)C(=O)N[C@@H](CO)C(=O)O [copper-64 labelled] |  | female NMRI nude mice, kidney | 22 h p.i. |  | tissue uptake | 5.2 ± 1.4 %ID/g
CCCC[C@H](NC(=O)CNC(=O)CNC(=O)CN1CCN(CC(=O)O)CCN(CC(=O)O)CC1)C(=O)N[C@H]1CC(=O)NCCCC[C@@H](C(N)=O)NC(=O)[C@H](Cc2c[nH]c3ccccc23)NC(=O)[C@H](CCCNC(=N)N)NC(=O)[C@@H](Cc2ccccc2)NC(=O)[C@H](Cc2c[nH]cn2)NC1=O [technetium-99m labelled] |  | C57 mouse, muscle | iv, 0.037 MBq, 24 h |  | tissue uptake | 0.03 ± 0.04 %ID/g
CCCC[C@H](NC(=O)CNC(=O)CNC(=O)CN1CCN(CC(=O)O)CCN(CC(=O)O)CCN(CC(=O)O)CC1)C(=O)N[C@H]1CC(=O)NCCCC[C@@H](C(N)=O)NC(=O)[C@H](Cc2c[nH]c3ccccc23)NC(=O)[C@H](CCCNC(=N)N)NC(=O)[C@@H](Cc2ccccc2)NC(=O)[C@H](Cc2c[nH]cn2)NC1=O [lutetium-177 labelled] |  | C57 mouse, female, whole blood | intravenous, 0.037 MBq, 4 h |  | tissue uptake | 0.15 ± 0.07 %ID/g

Excerpt of the above:
Structure (SMILES) | test | test system | setting | how to read | endpoint | value
N=C(N)NCCC[C@@H]1NC(=O)[C@H](CCCCNC(=O)CC[C@H](NC(=O)CC[C@H](NC(=O)CN2CCN(CC(=O)O)CCN(CC(=O)O)CCN(CC(=O)O)CC2)C(=O)N[C@@H](CCC(=O)NCCCC[C@@H]2NC(=O)[C@@H](Cc3ccccc3)NC(=O)[C@H](CC(=O)O)NC(=O)CNC(=O)[C@H](CCCNC(=N)N)NC2=O)C(=O)NCCCC[C@@H]2NC(=O)[C@@H](Cc3ccccc3)NC(=O)[C@H](CC(=O)O)NC(=O)CNC(=O)[C@H](CCCNC(=N)N)NC2=O)C(=O)NCCCC[C@@H]2NC(=O)[C@@H](Cc3ccccc3)NC(=O)[C@H](CC(=O)O)NC(=O)CNC(=O)[C@H](CCCNC(=N)N)NC2=O)NC(=O)[C@@H](Cc2ccccc2)NC(=O)[C@H](CC(=O)O)NC(=O)CNC1=O [indium-111 labelled] |  | female athymic nu/nu mice, bone | intravenous, 24 h |  | tissue uptake | 0.53 ± 0.27 %ID/g
Cc1cc(-c2ccc(NC(=O)[C@H](CCCCNC(=O)CCN3C(=O)CC(SCCC(=O)N[C@H](Cc4ccccc4)C(=O)N[C@H]4CSSC[C@@H](C(=O)N[C@H](C(=O)O)[C@@H](C)O)NC(=O)[C@H]([C@@H](C)O)NC(=O)[C@H](CCCCN)NC(=O)[C@@H](Cc5c[nH]c6ccccc56)NC(=O)[C@H](Cc5ccc(O)cc5)NC4=O)C3=O)NC(=O)CN3CCN(CC(=O)O)CCN(CC(=O)O)CCN(CC(=O)O)CC3)c(C)c2)ccc1N=Nc1ccc2c(S(=O)(=O)O)cc(S(=O)(=O)O)c(N)c2c1O (some centres unmarked) [gallium-68 labelled] | micro-PET | male BALB/c nude mouse, AR42J xenograft, tumour and muscle | intravenous, 7.4 MBq, 4 h | relative to: tumour over muscle | tumour-to-tissue uptake ratio | 5.39 ± 0.97
